Published values of several laboratories.
Numbered parts are unrelated; each lists some results of a single study.

Block 1 — technique: RNA Bind-n-Seq; form: RNA; sample: in vitro; concentration: 365 nM; reference: no-protein control; direction: higher = stronger binding; measurement: RBNS enrichment (R)
Target: RNA binding protein fox-1 homolog 2, RRM domain, GST-SBP tag (RBFOX2, Homo sapiens, UniProt O43251-10, residues 100-194)
Notes: natural RNA segment, single round, ends assumed
Target sequence (chain): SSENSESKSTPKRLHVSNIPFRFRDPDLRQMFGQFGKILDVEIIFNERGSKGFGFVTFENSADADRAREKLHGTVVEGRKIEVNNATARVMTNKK
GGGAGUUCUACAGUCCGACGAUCCCUCAGGUCAAGGGGAGGGAGGCAGCCUCAGUGCAGACUUUAUAGGAUUGUCCUCUUGGUGGACCGGAGUCCUGUCCUUCUCUGCCAAAGAGUUUUACCAAGAUGAAAAGUGGAAUUCUCGGGUGCCAA: 0.348
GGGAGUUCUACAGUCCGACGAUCGGCUCUUCCCGCCUGCAUCCCUCCCCUGUCCACCUUUGUCCAGUGCUAGAUUCACCUCACCCCGGGCAGGAGUGGGGAUGUGGGCGCUCUGUGGUCCUCCCCUCCUGACCUGGAAUUCUCGGGUGCCAA: 1.43
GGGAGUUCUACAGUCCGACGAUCCACCGUAGCAGGUAGACAGAUGGAGGAUGGCUGGGGAAGGGAGUUGUGGGCUGAAGUUUAGGGGACUGCAGACACAUCUGGGCCCAGUCCUCAGCUGUUCCUUGCUGGUAUGGAAUUCUCGGGUGCCAA: 0.558
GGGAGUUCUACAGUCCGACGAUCCUCUUUUUAGUUAAUAUACCAAAGCUUAUGAAUAAUUGUUUGUUAAUUGAACAUUUUCAAUUAUAUGCAGACUGACUGAUUCUAAGAUAAAUUCUAAGGAGGUUUCUAAUUGGAAUUCUCGGGUGCCAA: 0.457
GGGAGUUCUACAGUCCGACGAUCGCCAGUUACCAAGAUGGAAUGGAGUUGUGACCCAGUAACUGUGUCACGAGAGACCAUGUAUAUAAAAUAGUCAUGACGACACUGACCUCUUGCACUUGUACAUAACUAUAUGGAAUUCUCGGGUGCCAA: 0.305
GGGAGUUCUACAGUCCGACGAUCCUGUUCUGCUCCUCCCAGACAGAGCCUUUCCCUCACCCCCUGACCCCCUGGGCUGACCAAAAUGUGCUUUCUACUGUGAGUCCCUAUCCCAAGAUCCUGGGGAAAGGAGAUGGAAUUCUCGGGUGCCAA: 0.721
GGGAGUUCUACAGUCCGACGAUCGUUAAGUUCAGCCAAGGGACCCAAUGCAGACAUCCUUCGUGGACAGGGUUCAGCCUUGGGAGGCCAGGCUGGCUGGCUCACUCUCUUUCUCAUUCACUGCCAGACCCCACUGGAAUUCUCGGGUGCCAA: 0.418
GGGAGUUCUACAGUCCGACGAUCGUUCUGGACUCUGAUGUGUGUGGAGGGAUGGGGAAUAGAACAUUGACUGUGUUGAUUACCUUCACUAUUCGGCCAGCCUGACCUUUUAAUAACUUUGUAAAAAGCAUGUAUGGAAUUCUCGGGUGCCAA: 1.69
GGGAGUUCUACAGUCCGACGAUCUCCUUUCUUCUCCCUAUCAGAGCUGACCCUACAAACACCUGUCCCCUGAGUUGUGUUGAAGUCCCCUGGACAAUGAGCAGGGGUGGCAGAGGACAGCAGCAGCCACUGCCUGGAAUUCUCGGGUGCCAA: 0.997
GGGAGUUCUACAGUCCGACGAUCUCUGCCAAGUUGGCCCUCCCUGCUCUCGAGUGUUCCUUUCUUGAGACCUCAGGGUGCCCAGGUCCUGCAUCUCUCUAUUGCCCCACUUCCUGCUAUAAUCCCUGAUGAAAUGGAAUUCUCGGGUGCCAA: 0.772
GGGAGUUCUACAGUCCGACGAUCUUGGAGCAGUGUUUUGCAGAAUGAGCCAGAGUUCACCAAGCAGGCAAGGCAAGGAAGGGUGUUGCAGAGAGGGAACAGCAUAUGCAAAGGCGUAUCAGUUCAUGGCAUCAUGGAAUUCUCGGGUGCCAA: 0.647
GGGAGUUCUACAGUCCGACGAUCCCAUUUUCUCUUUCUAAGAAGAGCAACCUCAGCCGGAGUGAGUUUUUUCUGACUUUGCAGCUGAGUCUGGAGAAAAGUGGCAUGCCAGAGCGGGUCGGUGGGAAACAGGGUGGAAUUCUCGGGUGCCAA: 1.52

Block 2 — technique: protein binding microarray; form: double-stranded DNA, one strand shown; sample: in vitro; concentration: not given; reference: not given; direction: higher = stronger binding; measurement: E-score
Target: Histone acetyltransferase KAT6A, winged helix 1, GST fusion (KAT6A, Homo sapiens, UniProt Q92794, residues 1-85)
Notes: 8-mer, flanks averaged, mean of 2 arrays, mostly near background
Residues (chain): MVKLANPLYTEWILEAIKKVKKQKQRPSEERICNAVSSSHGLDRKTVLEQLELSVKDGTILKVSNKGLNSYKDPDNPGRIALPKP
CTTTTTGC: -0.0312
AGTATATA: 0.0197
ATCTCCTA: -0.214
AAGATAGC: -0.0612
ATCACCAA: -0.13
AATCTTCC: -0.0078
ATTACACC: -0.0591
CCGGCTCA: 0.0534
AACATTGT: -0.12
AGATAGCA: -0.215
CGTGTATC: 0.0718
GATTCCCA: -0.25
CACATCCG: 0.0752
CAGTATCG: 0.0479
CACTTCTA: -0.222
CTCGAACC: -0.0738
CTATTTAC: -0.0499
TAGGCGAA: -0.027
AGAACCTG: -0.246
CCTCGAAA: -0.106
AGTAATCA: -0.0652
TCCCTTCA: -0.222
GGCAACAA: -0.0926

Block 3 — technique: RNAcompete; form: RNA; sample: in vitro; concentration: 20 nM; notes: 7-mer, probes averaged, single round; reference: mean of 7-mers; direction: higher = stronger binding; measurement: 7-mer Z-score
Target: PABPC1L2, full length, GST fusion (mouse, UniProt A0ABA7IW68)
Construct (chain): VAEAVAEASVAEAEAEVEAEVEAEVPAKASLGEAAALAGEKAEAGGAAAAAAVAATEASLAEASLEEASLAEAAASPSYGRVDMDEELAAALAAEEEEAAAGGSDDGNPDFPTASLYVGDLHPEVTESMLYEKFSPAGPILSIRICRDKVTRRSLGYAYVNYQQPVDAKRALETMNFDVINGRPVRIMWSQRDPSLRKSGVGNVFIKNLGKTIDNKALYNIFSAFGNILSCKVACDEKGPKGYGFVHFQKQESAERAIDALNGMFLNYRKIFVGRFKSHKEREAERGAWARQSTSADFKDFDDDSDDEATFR
GGAUCAC: -0.108
AUCUUGG: -0.122
UCGGUCG: -0.313
ACACUUG: -0.0971
CGACGCU: -0.371
AGGAUAA: 0.36
AGGUAUA: 0.0714
GCGACCU: -0.0246
UUGGAUU: -0.0935
UAUCUGG: -0.137
GACUUAA: 0.0732
ACUUGGA: 0.0134
UAGAUCU: -0.184
CGACAUG: -0.121
CUAUUCC: -0.402
AGCUCGA: -0.289
CGAUAUU: -0.246
CACAUCU: -0.295
CCCACUG: -0.34
CCAUAAC: -0.248
GGAUCGC: -0.0681

Block 4 — technique: protein-binding microarray; form: double-stranded DNA, one strand shown; sample: in vitro; concentration: 2540 nM top; notes: 60-bp whole probe; added: salmon DNA 0.4 mg/ml; reference: random background probes; direction: higher = stronger binding; measurement: fitted relative affinity; shared flanks, not repeated: GCCTAGCAC … GTCTTGATTCGCTTGACGCTGCTG
Target: Interferon regulatory factor 3, full length, phosphomimetic (IRF3, Homo sapiens, UniProt Q14653, residues 1-427, S386D/S396D/S398D/S402D/T404D/S405D)
Construct (chain): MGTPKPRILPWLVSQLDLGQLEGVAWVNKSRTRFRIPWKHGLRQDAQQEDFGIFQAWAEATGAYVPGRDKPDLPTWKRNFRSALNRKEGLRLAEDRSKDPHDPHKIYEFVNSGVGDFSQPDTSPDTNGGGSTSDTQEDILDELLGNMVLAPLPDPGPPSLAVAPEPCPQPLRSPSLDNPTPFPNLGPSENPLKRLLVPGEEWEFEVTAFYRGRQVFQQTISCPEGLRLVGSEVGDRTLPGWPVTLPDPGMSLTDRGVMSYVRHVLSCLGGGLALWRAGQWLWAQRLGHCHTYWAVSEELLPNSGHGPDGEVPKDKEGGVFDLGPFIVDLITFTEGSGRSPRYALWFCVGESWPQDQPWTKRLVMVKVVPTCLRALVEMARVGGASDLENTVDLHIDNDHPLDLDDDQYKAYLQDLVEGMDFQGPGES
GACGGACTGGGGACTGGGGACGTGCTA: -0.905 z-score
GACGGAATCGGTATCGGGACGTGCTAG: 2.02 z-score
TCATCATTGCCTATTTTTCCGTGCTAG: 0.299 z-score
GACGGTATGGGTTTCGGGACGTGCTAG: 1.42 z-score
GACGGTATCCGTATCCTGACGTGCTAG: 3.81 z-score
TCATTTGTTTCACTTCCTACTGTGCTA: 4.25 z-score
GACGATTTCAGACTGGAGTCGTGCTAG: 1.2 z-score
GACGAACTCAGACTGGAGACGTGCTAG: -0.061 z-score
GAAGGTCTCGGTATCGGGACGTGCTAG: 1.35 z-score
TTAGGACTGGGTCTCGGTAAGTGCTAG: -0.66 z-score
GTAGGTTTCGGACTGGGTTAGTGCTAG: 4.13 z-score
GACGATTTCGGGTATCGACACGTGCTA: 1.82 z-score
GACGGTATAGGGTTTCGGGACGTGCTA: 0.916 z-score
TTATGACTGGGGTATCGGTTAGTGCTA: 0.188 z-score
GACGGTCGCCTTTTCCTGACGTGCTAG: 2.12 z-score
GACGAGTTCAGTTTCGAGACGTGCTAG: 2.77 z-score
GACGGTTTCCTTCTTCTGACGTGCTAG: 9.75 z-score
GACGGTTTCAGTTCCGGGACGTGCTAG: 6.18 z-score
GACGGTCTCGGTTTGGGGACGTGCTAG: 1.37 z-score

Block 5 — technique: RNA Bind-n-Seq; form: RNA; sample: in vitro; concentration: 200 nM; notes: whole 134-nt RNA, ends assumed; added: 150 mM KCl; reference: input library; direction: higher = stronger binding; measurement: log2 enrichment
Target: Fragile X messenger ribonucleoprotein 1, C-terminal low-complexity region (Fmr1, Mus musculus, UniProt P35922)
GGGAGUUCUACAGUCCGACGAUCUUUUCAAAAUAAGGAGCUUCCCAGACCUGUGUUAGAAGGGCAGCAGUCAGAGAGGACCCCAAAUAAUCGCCCUGAUGCCCCUAAGGAGAAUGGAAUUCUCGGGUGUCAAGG: -0.623
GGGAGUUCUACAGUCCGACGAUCUUGCGGCAGCCGCCCCCUUCUGCGCGGUCACGCCGAGCCAGCGCCUGGGCCUGGAACCGGGCCGUAGCCCCCCCAGUUUCGCCCACCACCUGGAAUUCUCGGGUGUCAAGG: -0.139
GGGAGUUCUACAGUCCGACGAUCAGUCCUGUGCUACACAUCGUAUGUACCGAAUCGGCCCCCGGGCCCCCGGGCCCCCGGAAAGUAUUAUGUUACGCCGUUCGGAUCUGCACUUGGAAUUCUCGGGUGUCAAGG: -0.826
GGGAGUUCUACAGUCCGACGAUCCUGUGCUACACAUCGUAUGUACCGAAUCGGGGAAAAAAAGGAAAAAAAGGGGAAAAAAAGGAAAGUAUUAUGUUACGCCGUUCGGAUCUGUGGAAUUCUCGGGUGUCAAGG: -0.761
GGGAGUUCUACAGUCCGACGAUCCUCAAGUCCUGUGCUACACAUCGUAUGUACCGAAUCGGUUGGGGUUGGUUGGGAAAGUAUUAUGUUACGCCGUUCGGAUCUGCACUUCCAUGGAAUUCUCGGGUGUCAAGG: 0.189
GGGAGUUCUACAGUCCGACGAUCGCAGGAAGUAAAAACAAAUGGAAAUGCUUCGGAAAGUGGCAGGGGUGGGGGUUGCUAAGGAAAGGGUGGGAUGGGAGUGGGUAAAGAGUUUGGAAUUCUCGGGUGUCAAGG: 0.249
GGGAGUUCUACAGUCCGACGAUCCUGUGCUACACAUCGUAUGUACCGAAUCGGGCCCCCCCGGCCCCCCCGGGGCCCCCCCGGGGAAAGUAUUAUGUUACGCCGUUCGGAUCUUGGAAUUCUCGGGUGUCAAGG: -1.16
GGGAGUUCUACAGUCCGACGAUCUCCUGUGCUACACAUCGUAUGUACCGAAUCGGGGCCCCCGGGGCCCCCGGGGCCCCCGGGAAAGUAUUAUGUUACGCCGUUCGGAUCUGCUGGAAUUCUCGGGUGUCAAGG: -0.0596
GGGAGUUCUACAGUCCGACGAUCCAAGUCCUGUGCUACACAUCGUAUGUACCGAAUCGGUUUGGGUUUGGGGUUUGGGGAAAGUAUUAUGUUACGCCGUUCGGAUCUGCACUUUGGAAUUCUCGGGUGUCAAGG: -0.0635
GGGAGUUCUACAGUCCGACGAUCCCUGUGCUACACAUCGUAUGUACCGAAUCAAAUUUUUUUAAAUUUUUAAACCCCCCCAAAAAAGUAUUAUGUUACGCCGUUCGGAUCUGCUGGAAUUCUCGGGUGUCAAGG: 0.141
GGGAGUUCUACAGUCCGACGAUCUGGCCCUGGUGGCAUGCGGGGAGGAAGAGGUGGCCUCAUGGAUCGUGGUGGUCCCGGUGGAAUGUUCAGAAGUGGCCGUGGUGGAGACAGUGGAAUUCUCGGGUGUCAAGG: 0.197
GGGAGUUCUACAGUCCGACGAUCCCUGUGCUACACAUCGUAUGUACCGAAUCAAAUUUUUAAACCCCCCCAAACCCCCCCAAAAAAGUAUUAUGUUACGCCGUUCGGAUCUGCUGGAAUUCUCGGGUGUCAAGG: -0.075
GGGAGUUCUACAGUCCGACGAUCCCUGUGCUACACAUCGUAUGUACCGAAUCGGGGUUUUUGGGGUUUGGGGUUUUUUUGGGGAAAGUAUUAUGUUACGCCGUUCGGAUCUGCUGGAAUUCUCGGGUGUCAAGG: 0.495
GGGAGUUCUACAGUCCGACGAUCGCAGGAAGUAAAAACAAAUGGAAAUGCUUCGGAUAGUGCCAGGGGUGGGGGUUGCUAAGGAAAGGGUGGGAUGGGAGUGGGUAAAGAGUUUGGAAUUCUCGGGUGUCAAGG: 0.443
